# Assay results collected from several papers.
# Compare with care: the assays were run in different laboratories.
# UniProt P30530, sequence (whole entry, looked up): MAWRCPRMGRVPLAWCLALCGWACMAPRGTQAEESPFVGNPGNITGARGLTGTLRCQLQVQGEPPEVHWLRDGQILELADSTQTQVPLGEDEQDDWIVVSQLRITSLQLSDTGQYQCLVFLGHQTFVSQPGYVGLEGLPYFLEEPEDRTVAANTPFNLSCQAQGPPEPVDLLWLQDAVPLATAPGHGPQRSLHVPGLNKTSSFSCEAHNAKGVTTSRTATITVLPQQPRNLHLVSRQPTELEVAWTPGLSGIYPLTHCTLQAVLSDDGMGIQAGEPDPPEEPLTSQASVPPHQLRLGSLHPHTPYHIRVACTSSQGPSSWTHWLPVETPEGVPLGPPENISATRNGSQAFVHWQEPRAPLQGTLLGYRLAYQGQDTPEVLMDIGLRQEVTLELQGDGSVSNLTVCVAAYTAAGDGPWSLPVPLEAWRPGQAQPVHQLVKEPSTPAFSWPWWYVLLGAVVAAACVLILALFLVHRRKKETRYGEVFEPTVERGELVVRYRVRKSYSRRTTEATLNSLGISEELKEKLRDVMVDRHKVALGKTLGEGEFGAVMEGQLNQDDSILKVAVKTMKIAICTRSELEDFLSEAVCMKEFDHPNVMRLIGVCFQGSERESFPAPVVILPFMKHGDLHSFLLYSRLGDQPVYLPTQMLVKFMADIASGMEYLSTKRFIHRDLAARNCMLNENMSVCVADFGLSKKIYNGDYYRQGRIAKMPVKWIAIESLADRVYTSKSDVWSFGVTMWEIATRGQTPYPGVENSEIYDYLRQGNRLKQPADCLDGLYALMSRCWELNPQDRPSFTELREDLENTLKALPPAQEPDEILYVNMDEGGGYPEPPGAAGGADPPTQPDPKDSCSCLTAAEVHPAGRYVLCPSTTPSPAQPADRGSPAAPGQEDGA
# UniProt Q7L7X3, sequence (whole entry, looked up): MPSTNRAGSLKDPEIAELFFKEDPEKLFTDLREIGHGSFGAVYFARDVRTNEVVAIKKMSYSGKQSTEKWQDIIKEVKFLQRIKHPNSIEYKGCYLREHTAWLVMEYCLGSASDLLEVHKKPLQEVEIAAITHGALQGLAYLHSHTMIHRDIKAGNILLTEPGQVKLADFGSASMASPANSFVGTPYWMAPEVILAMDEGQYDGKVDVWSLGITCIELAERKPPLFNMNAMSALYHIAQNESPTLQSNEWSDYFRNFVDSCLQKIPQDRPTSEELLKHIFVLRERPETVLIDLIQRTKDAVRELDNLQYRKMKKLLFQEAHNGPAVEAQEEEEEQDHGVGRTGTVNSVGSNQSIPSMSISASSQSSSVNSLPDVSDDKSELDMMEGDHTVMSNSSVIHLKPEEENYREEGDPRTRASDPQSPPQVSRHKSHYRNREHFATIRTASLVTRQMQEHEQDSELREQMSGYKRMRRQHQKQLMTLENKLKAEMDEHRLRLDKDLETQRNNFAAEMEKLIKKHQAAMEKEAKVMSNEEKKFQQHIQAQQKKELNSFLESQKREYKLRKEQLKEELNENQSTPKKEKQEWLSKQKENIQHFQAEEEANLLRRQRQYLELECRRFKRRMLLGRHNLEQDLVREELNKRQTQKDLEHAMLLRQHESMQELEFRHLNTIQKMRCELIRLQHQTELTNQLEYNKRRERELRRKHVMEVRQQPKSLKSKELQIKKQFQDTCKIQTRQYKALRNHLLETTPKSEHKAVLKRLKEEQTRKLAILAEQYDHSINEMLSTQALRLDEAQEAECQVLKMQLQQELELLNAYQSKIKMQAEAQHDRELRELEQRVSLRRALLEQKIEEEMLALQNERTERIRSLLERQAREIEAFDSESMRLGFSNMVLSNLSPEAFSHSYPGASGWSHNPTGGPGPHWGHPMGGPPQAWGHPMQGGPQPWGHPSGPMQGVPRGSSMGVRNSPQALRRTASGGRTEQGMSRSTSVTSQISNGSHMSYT
# UniProt Q8IU85, sequence (whole entry, looked up): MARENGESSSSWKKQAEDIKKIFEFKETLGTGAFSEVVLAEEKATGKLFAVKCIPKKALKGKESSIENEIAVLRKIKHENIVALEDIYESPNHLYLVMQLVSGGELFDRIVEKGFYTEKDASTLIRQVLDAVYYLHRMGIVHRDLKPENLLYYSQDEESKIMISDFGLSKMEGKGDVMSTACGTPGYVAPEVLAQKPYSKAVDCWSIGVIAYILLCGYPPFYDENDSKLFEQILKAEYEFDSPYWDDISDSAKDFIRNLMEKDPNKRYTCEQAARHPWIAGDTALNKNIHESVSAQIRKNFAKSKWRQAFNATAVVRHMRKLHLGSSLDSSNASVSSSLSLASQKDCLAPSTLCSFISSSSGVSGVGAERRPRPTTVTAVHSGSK
# UniProt Q15569, sequence (whole entry, looked up): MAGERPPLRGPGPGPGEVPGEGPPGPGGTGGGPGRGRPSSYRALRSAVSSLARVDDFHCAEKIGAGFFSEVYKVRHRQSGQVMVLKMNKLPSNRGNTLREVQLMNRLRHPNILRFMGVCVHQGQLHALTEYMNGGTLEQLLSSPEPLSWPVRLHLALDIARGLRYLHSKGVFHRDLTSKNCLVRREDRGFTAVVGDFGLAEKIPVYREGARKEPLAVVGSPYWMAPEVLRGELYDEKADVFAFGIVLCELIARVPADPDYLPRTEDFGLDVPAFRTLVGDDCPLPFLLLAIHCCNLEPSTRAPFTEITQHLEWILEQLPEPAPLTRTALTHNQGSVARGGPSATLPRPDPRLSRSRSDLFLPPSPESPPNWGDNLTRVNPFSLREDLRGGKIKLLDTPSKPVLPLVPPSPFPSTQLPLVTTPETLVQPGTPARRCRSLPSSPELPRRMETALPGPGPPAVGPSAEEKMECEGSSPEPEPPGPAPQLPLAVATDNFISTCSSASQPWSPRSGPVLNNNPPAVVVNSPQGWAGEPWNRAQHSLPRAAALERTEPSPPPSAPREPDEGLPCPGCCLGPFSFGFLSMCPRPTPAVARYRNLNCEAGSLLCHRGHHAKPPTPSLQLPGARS
Compound,target or system,test,system,conditions,measurement,value
COc1cc2ncnc(Nc3cccc(Br)c3)c2cc1OC,Staphylococcus aureus,microbial growth,NCTC8325,,MIC,> 30 µM
CN(Cc1ccc(C(C)(C)C)cc1)Cc1cccc2ccccc12,Trichophyton rubrum,"microbial growth, disc diffusion",ATCC28188,"0.0005 µg/mL, 6 days",inhibition zone,17.2 mm
COc1cc(C#CC(=O)c2ccc(C)cc2)ccc1O,Pseudomonas aeruginosa,"microbial growth, absorbance",,"100 µM, 24 h",activity vs control,113%
O=C(O)/C=C/c1c[nH]cn1,Cryptosporidium parvum,"parasite growth, imaging",HCT-8,"1 mM, 24 h, intracellular",activity vs control,97.3%
O=C(Cc1ccc(-c2ccc(OCCN3CCOCC3)cc2)cn1)NCc1ccccc1,Staphylococcus aureus,microbial growth,NCTC8325,,MIC,> 30 µM
N#Cc1ccc2cc[nH]c2c1,Cryptosporidium parvum,parasite growth,HCT-8,"24 h, intracellular",EC90,387 µM
CO[C@H]1C[C@@H]2CC[C@@H](C)[C@@](O)(O2)C(=O)C(=O)N2CCCC[C@H]2C(=O)O[C@H]([C@H](C)C[C@@H]2CC[C@@H](OP(C)(C)=O)[C@H](OC)C2)CC(=O)[C@H](C)/C=C(\C)[C@@H](O)[C@@H](OC)C(=O)[C@H](C)C[C@H](C)/C=C/C=C/C=C/1C,Staphylococcus aureus,microbial growth,NCTC8325,,MIC,> 30 µM
COc1cc(C#CC(=O)c2ccccc2)ccc1O,Pseudomonas aeruginosa,"microbial growth, absorbance",,"10 µM, 24 h",activity vs control,92%
O=C(Nc1ccc2c(c1)OCCO2)Nc1ccc(Cl)c(C(F)(F)F)c1,Staphylococcus aureus,microbial growth,NCTC8325,24 h,MIC,> 100 µM
C=CC(=O)N1CCC(COCC(=O)N2CCN(c3nc(-c4cnc(N)nc4C(F)F)nc(N4CCOC[C@@H]4C)n3)CC2)CC1,"TESK1 (Homo sapiens, UniProt Q15569)","binding, competition with immobilised ligand",,1 µM,remaining binding,100%
Cc1cc([C@@H](C)Nc2ccccc2C(=O)O)c2nc(N3CCC(F)(F)CC3)c(C#N)c(=O)n2c1,"AXL (Homo sapiens, UniProt P30530)","binding, competition with immobilised ligand",,1 µM,remaining binding,78%
CN(CC(=O)Nc1ccc(N(C)c2ccc(Cl)cc2)cc1Cl)c1ccccc1N1CCCC1=O,Plasmodium falciparum,parasite growth,3D7,"72 h, blood stage",EC50,0.338 µM
COc1cc(C#CC(=O)c2ccccc2OC)ccc1O,Pseudomonas aeruginosa,"microbial growth, absorbance",,"100 µM, 24 h",activity vs control,85%
CC(C)(O)CC(=O)NCCn1ccc2ncnc(Nc3ccc(Oc4cccc(C(F)(F)F)c4)c(Cl)c3)c21,Staphylococcus aureus,microbial growth,NCTC8325,,MIC,30 µM
Oc1ccc2cc[nH]c2c1,Cryptosporidium parvum,parasite growth,HCT-8,"24 h, intracellular",EC90,1680 µM
OC(C#Cc1ccc(F)c(F)c1)c1cccc(Cl)c1 (stereo not shown),Pseudomonas aeruginosa,"microbial growth, absorbance",,"100 µM, 24 h",activity vs control,98%
CN(Cc1ccc(C2(C(F)(F)F)CC2)cc1)Cc1cccc2ccccc12.Cl,Trichophyton rubrum,"microbial killing, broth dilution",ATCC28188,6 days,MFC,2000 mg/L
CC(C)N(c1ccc(C#N)cc1)c1ccc(NC(=O)CN(C)c2ccccc2N2CCCC2=O)cn1,Plasmodium falciparum,parasite growth,3D7,"72 h, blood stage",EC50,0.007 µM
CCCN(O)N=Nc1ccc(S(=O)(=O)Nc2nccs2)cc1,,ABTS scavenging,,180 µg/mL,inhibition,56.5%
COc1cc(C#C[C@@H](O)CC(C)C)ccc1O,Pseudomonas aeruginosa,"microbial growth, absorbance",,"10 µM, 24 h",activity vs control,97%
COc1cc(-c2cncc3c2CN(C)Cc2cc(N4CCNCC4)ccc2-3)cc(OC)c1OC,"TAOK1 (Homo sapiens, UniProt Q7L7X3)","enzyme activity, inhibitor",,1 µM,remaining activity,90%
CNc1ncc2c(/C=C/C(=O)N3CCC(OC)CC3)nn(Cc3cccc(C(F)(F)F)c3)c2n1,"CAMK1D (Homo sapiens, UniProt Q8IU85)","enzyme activity, inhibitor, radiometric",,1 µM,remaining activity,85%
Cc1ccc(Oc2ccc(NC(=O)CNc3ccccc3N3CCCC3=O)cc2)cc1,Plasmodium falciparum,parasite growth,3D7,"72 h, blood stage",EC50,0.81 µM
Cc1cccc(N(O)N=Nc2ccc(S(=O)(=O)Nc3onc(C)c3C)cc2)c1,,ABTS scavenging,,180 µg/mL,inhibition,54.2%
COc1cccc(C(=O)C#Cc2ccc(F)c(F)c2)c1,Pseudomonas aeruginosa,"microbial growth, absorbance",,"100 µM, 24 h",activity vs control,85%
Nc1ccn([C@@H]2O[C@H](COP(=O)(O)O)[C@@H](O)[C@H]2O)c(=O)n1,Cryptosporidium parvum,"parasite growth, imaging",HCT-8,"1 mM, 24 h, intracellular",activity vs control,101%
Cc1ccccc1Oc1ccc(NC(=O)CNc2ccccc2N2CCCC2=O)cc1,Plasmodium falciparum,parasite growth,3D7,"72 h, blood stage",EC50,> 10 µM
CCCCC(=O)Nc1ccc(-c2ccc3ncn(CCC)c(=O)c3c2)cn1,"MET (Homo sapiens, UniProt P08581, M1250T)","binding, competition with immobilised ligand",,0.5 µM,remaining binding,87%
Cc1ccc(C(=O)O)cc1,Cryptosporidium parvum,"parasite growth, imaging",HCT-8,"1 mM, 24 h, intracellular",activity vs control,80.5%
CCCCC[C@H](O)CC(=O)CCc1ccc(O)c(OC)c1,Pseudomonas aeruginosa,"microbial growth, absorbance",,"100 µM, 24 h",activity vs control,95%
O=c1[nH]c(=O)c2c[nH]nc2[nH]1,Cryptosporidium parvum,"parasite growth, imaging",HCT-8,"1 mM, 24 h, intracellular",activity vs control,115%
CNC(=O)c1cc(Oc2ccc(NC(=O)c3ccc(Cl)c(C(F)(F)F)c3)cc2)ccn1,Staphylococcus aureus,microbial growth,NCTC8325,,MIC,> 100 µM
Cc1ccc(N(CC(C)C)c2ccc(NC(=O)CN(C)c3ccccc3N3CCCC3=O)cc2)cc1,Plasmodium falciparum,parasite growth,3D7,"72 h, blood stage",EC50,0.031 µM
N#Cc1cccc2[nH]ccc12,Cryptosporidium parvum,parasite growth,HCT-8,"24 h, intracellular",EC90,743 µM
COc1cc(C#CC(=O)c2ccc(C(F)(F)F)cc2)ccc1O,Pseudomonas aeruginosa,"microbial growth, absorbance",,"100 µM, 24 h",activity vs control,95%
Oc1cccc2cc[nH]c12,Cryptosporidium parvum,parasite growth,HCT-8,"24 h, intracellular",EC90,1180 µM
CN(c1ncccc1CNc1nc(Nc2ccc3c(c2)CC(=O)N3)ncc1C(F)(F)F)S(C)(=O)=O,Staphylococcus aureus,microbial growth,NCTC8325,,MIC,> 30 µM

# A few entries again:
Compound,target or system,test,system,conditions,measurement,value
O=C(O)/C=C/c1c[nH]cn1,Cryptosporidium parvum,"parasite growth, imaging",HCT-8,"1 mM, 24 h, intracellular",activity vs control,97.3%
COc1cc2ncnc(Nc3cccc(Br)c3)c2cc1OC,Staphylococcus aureus,microbial growth,NCTC8325,,MIC,> 30 µM
COc1cccc(C(=O)C#Cc2ccc(F)c(F)c2)c1,Pseudomonas aeruginosa,"microbial growth, absorbance",,"100 µM, 24 h",activity vs control,85%
CN(CC(=O)Nc1ccc(N(C)c2ccc(Cl)cc2)cc1Cl)c1ccccc1N1CCCC1=O,Plasmodium falciparum,parasite growth,3D7,"72 h, blood stage",EC50,0.338 µM
Cc1ccc(N(CC(C)C)c2ccc(NC(=O)CN(C)c3ccccc3N3CCCC3=O)cc2)cc1,Plasmodium falciparum,parasite growth,3D7,"72 h, blood stage",EC50,0.031 µM
